Published values of several laboratories.
Parts stem from different laboratories: compare values within a part only. Substitutions count along the parent as printed.

Set 1
Target: ABI1, truncated, D143A, DHFR fusion (Arabidopsis thaliana)
Method: DHFR PCA, deep sequencing
Medium: yeast
Setting: methotrexate growth selection, single substitutions
Added: (+)-ABA 710 µM
Reference: wild-type fitted maximum
Direction: higher = stronger binding
Endpoint: relative binding score
Starting sequence: PYL1, truncated, DHFR fusion (Arabidopsis thaliana); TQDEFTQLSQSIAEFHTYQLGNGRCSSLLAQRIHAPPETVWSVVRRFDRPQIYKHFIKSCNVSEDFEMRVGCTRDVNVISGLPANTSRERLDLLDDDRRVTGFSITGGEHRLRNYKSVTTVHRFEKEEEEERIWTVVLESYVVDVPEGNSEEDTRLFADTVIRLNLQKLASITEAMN
Substitution = A170V; value = 81.8%
Substitution = E174N; value = 90.5%
Substitution = G107T; value = 86.1%
Substitution = C25R; value = 43.2%
Substitution = S171D; value = 105%
Substitution = V145G; value = 13.6%
Substitution = V70R; value = 96.7%

Set 2
Target: RNA binding protein fox-1 homolog 2, RRM domain, GST-SBP tag (RBFOX2, Homo sapiens, UniProt O43251-10, residues 100-194)
Method: RNA Bind-n-Seq
Form: RNA
Medium: in vitro
Concentration: 365 nM
Setting: natural RNA segment, single round, ends assumed
Reference: no-protein control
Direction: higher = stronger binding
Endpoint: RBNS enrichment (R)
All sequences stand within: GGGAGUUCUACAGUCCGACGAUC … UGGAAUUCUCGGGUGCCAA
Residues (chain): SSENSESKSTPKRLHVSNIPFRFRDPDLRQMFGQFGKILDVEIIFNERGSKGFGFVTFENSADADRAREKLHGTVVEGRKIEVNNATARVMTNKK
Strand = CUCACACCCCUUGUGCUAGAGGUGUUCGGCAAUGAGAUCUCCUGACCAGGGUGGCCUGCAGUGGUGCCUGGGUAGGGCCGCUCCUCUGGGGCCCUGUGCCCAGGCCCUGG; value = 0.268
Strand = AGCCCCACAGCCCCAAGCUCGCUGAGGCAACGUGAGAACAGGCUAUGGGAAGGCUGCAAAGGCUGAGAAAUGCAAAGGCUCAUAUUUAUAAAUCCCACCCCCAGAGUGGG; value = 0.804
Strand = AUUUAUUUAUUGAAGAUGUCCCCCAGGGGCCCAGGCUCCCCUGCCCGCCCCAAGCCCUGCCCCUCCUGUACAUAUAGCCCUUUCCCCACUCAGCUGUGGUGUCUCGUGGC; value = 0.614
Strand = ACAUAUCCUGGAUCACAAAGCAAAGAAGAUGAACAGGUCCAGACACUGAGGCAAAUGGUACCUCAUUGGGUUGGAGACCCUCACCGGUUACUAUUUAUUUUACCCCACAC; value = 0.543
Strand = CCAUCAUUUGCAGUUUGCAUGUGGGGAAACCAAAGCCCUAAGAAACAACAGUUCCUGGCCCAAAAAAUCCAUAGAAAGAGGUAACUAGUGGCAGAUUUGGGGCGCCAACC; value = 1.07
Strand = CAAUGGUACUGUUUCUUAGUGUUUUCAAUUGGAACAUAUCUUGUCUCACAGAGCUUUAAAUUAUUCUCCUAAGUUUCUUGUGGAUGAAGCGCUCUCAUCUAACCUAUGUU; value = 0.402
Strand = CCCGUGGCGGAAGCUGGUUUUGCAAGGACUGUGUAAGCUGUAUGCGUUCUAGCUGUAUGCGUUCUGUAGUCUUUUCUUAGGUGGGUAACAUUUUCAAUAACGCGCGCACA; value = 0.61
Strand = GAGCACUUUCCUAACUACUGCAGACAGACUGACUGCCAAGGCACACUGUGCUCACGACUGGAAAGUAGCCUUUUUCUUCUAUCAAUGUUUACCAUAAAGUUCCUUUCUCA; value = 0.327
Strand = GAAGCCUCCAGAGGGACAGCAGGGACGAGCCACACUCAACCCCCCCCCUGCACAUCAGGUCUGAGAGCUAGGAGCUGGGACAGGAGUCGUCUGCAGGAGCUCAGUUGGCU; value = 0.492
Strand = AUAGUGACAUCUGGGACCCCAGGCCUCUGAAGCAUUUGCAGCCUCCUCAGGAGGGUGAGGGCCAUCUUAAUGCAGUGGUAAGGGACUGGUGAUCAUGGCUUCUCUAGCUG; value = 0.356

Set 3
Target: CCNB3, cyclin fold, Cln2 fusion (human)
Method: yeast growth competition, sequencing
Medium: yeast
Setting: weak parent motif
Reference: not given
Direction: higher = stronger binding
Endpoint: normalised enrichment score
Starting sequence: CDKN1A docking peptide (human); SKACRRLFGPVDS; partner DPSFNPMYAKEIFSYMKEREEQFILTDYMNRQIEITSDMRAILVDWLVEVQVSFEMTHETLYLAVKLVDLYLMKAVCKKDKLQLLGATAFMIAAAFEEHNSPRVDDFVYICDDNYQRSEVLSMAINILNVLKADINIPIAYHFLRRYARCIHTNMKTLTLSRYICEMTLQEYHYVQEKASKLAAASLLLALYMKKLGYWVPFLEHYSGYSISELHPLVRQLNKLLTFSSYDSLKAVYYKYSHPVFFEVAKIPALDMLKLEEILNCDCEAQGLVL
Substitution = STACRRLFGPVDS [K2T]; value = 0.72
Substitution = SKACRALFGPVDS [R6A]; value = 0.119
Substitution = SKACRRLFGYVDS [P10Y]; value = 0.384
Substitution = SKACIRLFGPVDS [R5I]; value = 0.196
Substitution = SKACRRLFMPVDS [G9M]; value = 0.727
Substitution = SKACKRLLGPVDS [R5K F8L]; value = 0.0842
Substitution = SKACRMLFGPVDS [R6M]; value = 0.242
Substitution = SKACRRIFGPVDS [L7I]; value = 0.188

Mixed results
Molecule = PhoQ, residues 284 288 289 292 302 303 SACGEM; target = PhoP, residues 12 14 15 18 19 LHHVQ (Escherichia coli, UniProt P23836); assay = Sort-seq, refers to: YFP reporter; system = E. coli; conditions = PhoQ-PhoP variant library, added: 10 µM Mg2+; scale = reference: high Mg2+ state, higher = stronger signaling; endpoint = fold induction; value = 31.6

Excerpt of the above (set 3):
Substitution = SKACRRLFMPVDS [G9M]; value = 0.727
Substitution = SKACRRLFGYVDS [P10Y]; value = 0.384
